# Experimental data gathered from unrelated publications.
# Each numbered part is a random draw from the data of one study; scales do not carry over between parts.

# Sample 1
# Target: Sal-like protein 4, full length isoform B (SALL4, Homo sapiens, UniProt Q9UJQ4-2, residues 1-616)
# Method: universal PBM
# Form: double-stranded DNA, one strand shown
# Sample: in vitro
# Tested at: not given
# Setting: 8-mer, flanks averaged, mean of replicates
# Reading: higher = stronger binding
Oligonucleotide,E-score
CACACCTG,-0.172
GCAAGGGA,-0.12
CACTAATG,0.0941
GATGTAAC,0.158

# Sample 2
# Target: Phosphate system positive regulatory protein PHO4, full length, GST-tagged (PHO4, Saccharomyces cerevisiae, UniProt P07270, residues 1-312)
# Method: competition protein-binding microarray
# Form: double-stranded DNA, one strand shown
# Sample: in vitro
# Tested at: 2 µM
# Setting: whole 60-bp probe, lowest competitor level
# Added: Cbf1 competitor, 0.05 µM
# Reading: higher = stronger binding
# Target sequence (chain): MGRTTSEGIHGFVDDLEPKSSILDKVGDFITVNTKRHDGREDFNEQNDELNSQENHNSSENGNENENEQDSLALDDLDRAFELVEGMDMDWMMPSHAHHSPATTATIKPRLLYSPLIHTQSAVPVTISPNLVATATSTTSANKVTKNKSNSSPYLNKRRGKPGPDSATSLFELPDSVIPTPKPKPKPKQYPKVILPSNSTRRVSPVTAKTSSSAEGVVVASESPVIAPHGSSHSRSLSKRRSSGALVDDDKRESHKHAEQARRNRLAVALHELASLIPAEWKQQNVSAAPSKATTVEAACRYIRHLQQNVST
Oligonucleotide,fluorescence intensity [a.u.]
ACAGCCACTGGCGGCCGCGTGCTTCCTCCCCTCCCTGTCTTGATTCGCTTGACGCTGCTG,9350
TAAGGAAAAACTCACCACGTTCTTCTGAACATGTTCGTCTTGATTCGCTTGACGCTGCTG,11300
TTCTCGAAGAGTCGGCACGGGATCCTGAAAAAAGCAGTCTTGATTCGCTTGACGCTGCTG,8930

# Sample 3
# Target: Interferon regulatory factor 7, full length, phosphomimetic (IRF7, Homo sapiens, UniProt Q92985, residues 1-503, S101K/S471D/S472D/S475D/S476D/S477D/S483D/S484D/S487D)
# Sequence of UniProt Q92985 (whole entry, unmodified, looked up): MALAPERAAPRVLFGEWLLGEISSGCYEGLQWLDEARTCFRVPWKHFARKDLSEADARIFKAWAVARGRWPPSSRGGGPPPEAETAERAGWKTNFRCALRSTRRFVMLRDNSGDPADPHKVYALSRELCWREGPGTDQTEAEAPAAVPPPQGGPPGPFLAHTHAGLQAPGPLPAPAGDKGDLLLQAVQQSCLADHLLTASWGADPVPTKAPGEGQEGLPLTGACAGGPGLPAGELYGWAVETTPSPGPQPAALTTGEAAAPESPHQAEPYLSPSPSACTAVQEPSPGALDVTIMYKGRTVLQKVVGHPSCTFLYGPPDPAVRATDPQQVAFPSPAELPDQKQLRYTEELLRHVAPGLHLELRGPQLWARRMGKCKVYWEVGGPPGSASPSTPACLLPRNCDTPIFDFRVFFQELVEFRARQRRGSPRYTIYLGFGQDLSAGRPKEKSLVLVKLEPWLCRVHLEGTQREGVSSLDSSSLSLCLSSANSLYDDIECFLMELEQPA
# Method: protein-binding microarray
# Form: double-stranded DNA, one strand shown
# Sample: in vitro
# Tested at: 250 nM
# Setting: 60-bp whole probe
# Added: salmon DNA 0.4 mg/ml
# Relative to: random background probes
# Reading: higher = stronger binding
# Shared flanks, not repeated: GCCTAGCAC … GTCTTGATTCGCTTGACGCTGCTG
Oligonucleotide,log fluorescence
GACGGTTTGGGGTTTCGGGACGTGCTA,1.59 z-score
TCACTCCTCTAGGTTCTCACTGTGCTA,0.186 z-score
TCAAAAATGATTGGTTGACTGTGCTAG,-0.412 z-score
GGTATTATTTATTGTAGCCTCGTGCTA,0.282 z-score
ACCATTTTGGTTTTCTCTATGTGCTAG,0.848 z-score
GGCGATATCGGGTATCGAGACGTGCTA,-0.638 z-score

# Mixed results
Substance,target,assay,test system,setting,how to read,quantity,value
"PhoQ, residues 284 288 289 292 302 303 ALAMYF","PhoP, residues 12 14 15 18 19 NHFIF (Escherichia coli, UniProt P23836)","Sort-seq, item: YFP reporter",E. coli,"PhoQ-PhoP variant library, added: 10 µM Mg2+","relative to: high Mg2+ state, higher = stronger signaling",fold induction,2.24

# A few entries again (sample 3):
Oligonucleotide,log fluorescence
GGCGATATCGGGTATCGAGACGTGCTA,-0.638 z-score
